Results collected from several papers.
A part holds a random share of what one study measured.

Study 1 — method: protein binding microarray; form: double-stranded DNA, one strand shown; sample: in vitro; tested at: not given; baseline: not given; direction: higher = stronger binding
Target: Histone acetyltransferase KAT6A, winged helix 2, GST fusion (KAT6A, Homo sapiens, UniProt Q92794, residues 85-181)
Setting: 8-mer, flanks averaged, mean of 2 arrays, mostly near background
Construct (chain): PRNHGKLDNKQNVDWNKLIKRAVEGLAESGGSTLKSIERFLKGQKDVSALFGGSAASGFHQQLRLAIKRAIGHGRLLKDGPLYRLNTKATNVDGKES
The E-score of `AGTCCTAG` is reported as -0.256.
`ACTCCCAT` gave an E-score of -0.132.
`AACGCGTG` gave an E-score of 0.0342.
`AACGCGTC` has an E-score of 0.15.
`ACCTCACA` gave an E-score of -0.0495.
The E-score of `AACGCAAA` is reported as 0.0528.
For `AACCAGGT`, the E-score was -0.0382.
With `AACGACTC` the E-score was -0.237.
With `GTGGCATA` the E-score was -0.0586.
`CTGATCAG` gave an E-score of 0.119.
With `GCCACTAC` the E-score was -0.0564.
With `CCGCAGCG` the E-score was 0.203.
With `ATTAGCAC` the E-score was 0.138.
For `ATTGACAA`, the E-score was -0.0518.
`GACACGTC` gave an E-score of -0.155.
With `AAGGGCTC` the E-score was -0.088.
With `ATTCCGGA` the E-score was 0.061.
The E-score of `CGGAGACA` is reported as 0.224.
The E-score of `GTGGTAAA` is reported as 0.074.
The E-score of `AAGACCTT` is reported as -0.0598.
For `AGTGGTAC`, the E-score was -0.139.
For `CAGAGTGA`, the E-score was 0.0635.

Study 2 — method: protein-binding microarray; form: double-stranded DNA, one strand shown; sample: in vitro; tested at: not given; direction: higher = stronger binding
Target: Protein max, full length (MAX, Homo sapiens, UniProt P61244-2, residues 1-151)
Setting: k-mer, scored over probes, only values ≥0.25
For `CACGCGTA`, the E-score was 0.434.
The E-score of `CCCGTGGC` is reported as 0.297.
`CACGCGAC` has an E-score of 0.444.
With `ACTCATGC` the E-score was 0.337.
For `CTCACGAG`, the E-score was 0.325.
With `CAAGGTGG` the E-score was 0.257.
With `CATCATGC` the E-score was 0.326.
`ACACCTGA` gave an E-score of 0.266.
`ACCCCGTG` gave an E-score of 0.421.
`ATCACGCG` gave an E-score of 0.454.
For `GCCATGCC`, the E-score was 0.385.
For `ACATGAGC`, the E-score was 0.312.
With `GGAGTGCA` the E-score was 0.278.
For `AGCACGCG`, the E-score was 0.459.
`CTGCGTGC` has an E-score of 0.301.
`CACGCTAA` gave an E-score of 0.333.
`CGCACACA` gave an E-score of 0.283.
`CGCGTGAA` has an E-score of 0.384.
The E-score of `CGTGGTTC` is reported as 0.359.
For `TCACATGA`, the E-score was 0.423.
With `CACGTTAG` the E-score was 0.353.
`ATCCCGTG` has an E-score of 0.293.
The E-score of `CGTGGTGC` is reported as 0.398.
`CATGACGC` gave an E-score of 0.285.
`ACATGCGA` has an E-score of 0.394.

Study 3 — method: competition protein-binding microarray; form: double-stranded DNA, one strand shown; sample: in vitro; tested at: 2 µM; added: Pho4 competitor, 0.05 µM; direction: higher = stronger binding
Target: Centromere-binding protein 1, full length, His-tagged (CBF1, Saccharomyces cerevisiae, UniProt P17106, residues 1-351)
Chain of UniProt P17106 (whole entry, looked up): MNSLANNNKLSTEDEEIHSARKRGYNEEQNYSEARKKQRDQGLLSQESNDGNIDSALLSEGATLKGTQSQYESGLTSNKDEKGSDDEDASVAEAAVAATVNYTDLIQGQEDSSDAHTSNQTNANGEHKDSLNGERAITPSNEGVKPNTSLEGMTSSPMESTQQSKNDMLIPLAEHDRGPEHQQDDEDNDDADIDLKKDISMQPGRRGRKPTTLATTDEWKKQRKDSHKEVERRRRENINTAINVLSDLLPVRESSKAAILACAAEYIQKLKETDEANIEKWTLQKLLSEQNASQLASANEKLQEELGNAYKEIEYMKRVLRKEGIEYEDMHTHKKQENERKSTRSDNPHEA
Setting: whole 60-bp probe, lowest competitor level
With `CTGAACTAACACTCACACATGTAGAGGTCCCCGGGAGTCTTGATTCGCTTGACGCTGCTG` the fluorescence intensity was 73.1 a.u.
`GTCCGAGAACCCACCCTCGTGTGGAACTTCTTGAGCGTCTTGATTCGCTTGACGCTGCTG` has a fluorescence intensity of 69.8 a.u.
`CAAAAGAAAAAGTTTGACGTGATGGATCCATCTAACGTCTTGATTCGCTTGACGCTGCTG` gave a fluorescence intensity of 98.9 a.u.
The fluorescence intensity of `TTCTTTACCGTTTTGCACGTGCGATGCGAAAAGTATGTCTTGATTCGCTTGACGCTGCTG` is reported as 1550 a.u.
The fluorescence intensity of `ATTCTAACCCTGATGAACGTGTCGGTCAACTTACCCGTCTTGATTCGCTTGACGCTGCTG` is reported as 65.9 a.u.
For `CGTCCTAGTGATTGCTGTGTGGGTGCCATGAGGAAGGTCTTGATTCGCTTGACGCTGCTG`, the fluorescence intensity was 96.7 a.u.
The fluorescence intensity of `CCGCTTGTGCCTACCCACGTGGTGAGCAATCTTCTCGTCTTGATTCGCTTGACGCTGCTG` is reported as 1170 a.u.
`TCCAACCTGCAAGGGGTCGTGCCAGTGACGAAAAGAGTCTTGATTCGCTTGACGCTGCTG` gave a fluorescence intensity of 84.4 a.u.
For `CGGGGTTAAGTTTGTTTTGTGGGTGGCTTGCAGCAGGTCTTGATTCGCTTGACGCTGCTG`, the fluorescence intensity was 93.4 a.u.
With `GGCCAAACAGTTGGGCACATGGCAGGAGATGTAGCCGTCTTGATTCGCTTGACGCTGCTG` the fluorescence intensity was 89.7 a.u.
`CGCAGTCAGCGAGCCCACGTGCTTGTGTTGACTGGAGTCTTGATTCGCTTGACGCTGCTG` has a fluorescence intensity of 866 a.u.
`CAGTCTACCAAGGTGAACGTGTTGACTGTAAAGAAAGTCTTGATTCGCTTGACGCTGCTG` has a fluorescence intensity of 74.6 a.u.
`AAATTACTAAGTTGGTTTGTGGGTGACGCCGTATGAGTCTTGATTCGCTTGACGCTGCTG` has a fluorescence intensity of 65.3 a.u.
For `ACTTATCTGTCGAATCTCGTGACGGCACCTCCGACAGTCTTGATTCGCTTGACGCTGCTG`, the fluorescence intensity was 542 a.u.
For `CAAAGAAGTAACCTCCACGTTAAGTGCTGAAATAACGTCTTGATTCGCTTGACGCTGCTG`, the fluorescence intensity was 71.7 a.u.
With `GGTTTGTTTACAGTACGCGTGGTGAGACCATAAAGGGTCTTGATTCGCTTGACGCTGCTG` the fluorescence intensity was 102 a.u.

Study 4 — method: RNA Bind-n-Seq; form: RNA; sample: in vitro; tested at: 1 µM; setting: whole 134-nt RNA, ends assumed; added: 150 mM KCl; baseline: input library; direction: higher = stronger binding
Target: Ras GTPase-activating protein-binding protein 1, C-terminal RGG region (G3BP1, Homo sapiens, UniProt Q13283)
Chain of UniProt Q13283 (whole entry, looked up): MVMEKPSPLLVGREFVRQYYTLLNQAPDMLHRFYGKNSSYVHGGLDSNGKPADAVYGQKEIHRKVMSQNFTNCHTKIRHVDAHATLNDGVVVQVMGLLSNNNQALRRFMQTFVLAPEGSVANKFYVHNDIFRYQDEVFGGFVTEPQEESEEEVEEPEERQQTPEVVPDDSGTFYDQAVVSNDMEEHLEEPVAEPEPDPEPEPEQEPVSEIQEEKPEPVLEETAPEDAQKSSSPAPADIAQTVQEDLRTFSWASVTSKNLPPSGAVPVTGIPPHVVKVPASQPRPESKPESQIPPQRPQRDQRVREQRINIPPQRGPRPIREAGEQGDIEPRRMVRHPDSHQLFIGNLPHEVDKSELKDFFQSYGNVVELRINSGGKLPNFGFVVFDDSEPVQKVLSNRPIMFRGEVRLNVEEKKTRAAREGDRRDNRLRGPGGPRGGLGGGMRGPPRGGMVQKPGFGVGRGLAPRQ
`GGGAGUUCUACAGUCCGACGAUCAGUCCUGUGCUACACAUCGUAUGUACCGAAUCGGGGAAAGGGGUGGGGAAAAAGGGGAAAGUAUUAUGUUACGCCGUUCGGAUCUGCACUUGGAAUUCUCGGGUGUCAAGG` gave a log2 enrichment of 1.45.
The log2 enrichment of `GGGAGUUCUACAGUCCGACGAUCAAGUCCUGUGCUACACAUCGUAUGUACCGAAUCGGUUUUUUUGGUUUUUUUGGUGGAAAGUAUUAUGUUACGCCGUUCGGAUCUGCACUUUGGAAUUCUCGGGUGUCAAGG` is reported as -1.99.
For `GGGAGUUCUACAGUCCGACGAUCCAAGUCCUGUGCUACACAUCGUAUGUACCGAAUCGGGAAAAGGAAAAGGGAAAAGGAAAGUAUUAUGUUACGCCGUUCGGAUCUGCACUUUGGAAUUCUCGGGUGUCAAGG`, the log2 enrichment was -2.01.
`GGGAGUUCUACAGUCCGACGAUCUUAUUGAACUGACAAGGUCCUCCCUGUGUUGUAGCAAGGACCAGACUGGCUUGAGCUCUCUGAGAUGACCGAGCAGCCAGACUAUGACCUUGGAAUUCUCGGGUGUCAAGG` has a log2 enrichment of 0.0655.
`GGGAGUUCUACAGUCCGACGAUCUCAAGUCCUGUGCUACACAUCGUAUGUACCGAAUCGGGAGGGAAAAAGGGAGGGAAAGUAUUAUGUUACGCCGUUCGGAUCUGCACUUCCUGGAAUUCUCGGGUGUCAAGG` has a log2 enrichment of 2.05.
With `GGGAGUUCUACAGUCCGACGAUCUCAAGUCCUGUGCUACACAUCGUAUGUACCGAAUCGGAAAGGAGGUUUUUUUGGAAAGUAUUAUGUUACGCCGUUCGGAUCUGCACUUCCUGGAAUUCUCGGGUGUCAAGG` the log2 enrichment was -1.23.
`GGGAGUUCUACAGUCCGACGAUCGGACACAGCUUGGGCUAUGGCUUUGUGAACUACGUGACCGCGAAGGAUGCAGAGAGAGCGAUCAACACGCUGAACGGCUUGAGGCUCCAGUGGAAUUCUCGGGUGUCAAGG` has a log2 enrichment of -1.97.
`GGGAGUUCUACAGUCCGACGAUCCCUCAAGUCCUGUGCUACACAUCGUAUGUACCGAAUCGGGGUGGGUGGUGGGGAAAGUAUUAUGUUACGCCGUUCGGAUCUGCACUUCCAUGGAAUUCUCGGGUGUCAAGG` gave a log2 enrichment of 0.704.
`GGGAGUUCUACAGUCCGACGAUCUCAAGUCCUGUGCUACACAUCGUAUGUACCGAAUCGGGCCCGGCCCGGGCCCGGGAAAGUAUUAUGUUACGCCGUUCGGAUCUGCACUUCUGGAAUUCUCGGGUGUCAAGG` has a log2 enrichment of -2.1.
The log2 enrichment of `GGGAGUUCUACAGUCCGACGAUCUGGCUAGUCAGCAGCGGAUGUCCCCUCCAGGUUAAGAAAGCCGAACCAGAGCCGAUGCGAGAGGAGGAGAAAAUGAUUCCUCCUACGAAAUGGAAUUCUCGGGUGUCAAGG` is reported as -0.813.
